Measured values from different studies.
Protocols differ between the studies behind these lines. Several values in a cell are separate wells, animals, samples, runs or records. ± gives the spread as reported.
Ectonucleoside triphosphate diphosphohydrolase 1: Ectonucleoside triphosphate diphosphohydrolase 1 (Homo sapiens, UniProt P49961)
CDC25B: M-phase inducer phosphatase 2 (CDC25B, Homo sapiens, UniProt P30305)
Si: Sucrase-isomaltase, intestinal (Si, Rattus norvegicus, UniProt P23739)
HDAC6: Protein deacetylase HDAC6 (HDAC6, Homo sapiens, UniProt Q9UBN7)
GAA: Lysosomal alpha-glucosidase (GAA, Homo sapiens, UniProt P10253)

| SMILES | target | assay | test system | setting | scale | inhibition |
| --- | --- | --- | --- | --- | --- | --- |
| Cc1ccc(NC(=O)c2cccc(S(=O)(=O)N3CCOCC3)c2)c(C)c1 | Ectonucleoside triphosphate diphosphohydrolase 1 | enzyme activity, inhibitor, absorbance |  | 100 µM |  | 26% |
| N#Cc1c(F)c(Cl)c2nc(SCc3ccc4ccccc4c3)nc(N)c2c1F | CDC25B | enzyme activity, inhibitor, fluorescence |  | 20 µg/mL |  | 94% |
| CN(Cc1cc(C2CC2)on1)C(=O)c1cccc(-c2ccc3c(c2)CCO3)c1 | Acetyl-coenzyme A synthetase 2 (ACS2, Candida albicans, UniProt Q8NJN3) | enzyme activity |  | concentration not given |  | no inhibition |
| O=[N+]([O-])c1cccc(S(=O)(=O)NC[C@@H](O)[C@@H]2CCc3cc(F)ccc3O2)c1 | PTGS1 (Ovis aries, UniProt P05979) | enzyme activity, inhibitor, absorbance |  | 100 µM |  | 47.7% |
| CN(C)S(=O)(=O)c1cc(C(=O)O)ccc1NCCCCCCCC(F)(F)F | Solute carrier family 12 member 1 (SLC12A1, Homo sapiens, UniProt Q13621) | chloride influx | HEK293 transfected with SLC12A1 | 10 µM | reference: DMSO | -6.9 ± 7.8% |
| N#Cc1c(F)c(F)c2nc(SCc3ccc4ccccc4c3)nc(N)c2c1F | CDC25B | enzyme activity, inhibitor, fluorescence |  | 20 µg/mL |  | 99.4% |
| O=[N+]([O-])c1ccc(Cn2cc(Cn3cc(CO)nn3)nn2)cc1 | 1-phosphatidylinositol 4,5-bisphosphate phosphodiesterase delta-1, PH domain (Plcd1, Rattus norvegicus, UniProt P10688) | PI(4,5)P2 binding, competitive SPR |  | 5 µM, pH 7.4, PH domain 500 nM |  | 72 ± 3% |
| COc1ccc([C@@]23Oc4cc(OC)cc(OC)c4[C@]2(O)[C@@H]2OC(=O)[C@@H]2C3c2ccccc2)cc1 (mixture of isomers) | Palmitoyl-protein thioesterase ABHD10, mitochondrial (Homo sapiens, UniProt Q9NUJ1) | enzyme activity in cells, inhibitor | PC-3 | 0.1 µM |  | > 90% |
| O=C(O[C@H]1Cc2c(O)cc(O)cc2O[C@@H]1c1ccc(O)cc1)c1cc(O)c(O)c(O)c1 | Si | enzyme activity, inhibitor | rat intestinal brush border vesicles | 10 µM |  | 88.1% |
| COc1ccc(-c2ocnc2-c2cc(Br)c(OC)c(OC)c2)cc1OCCCC(=O)NO | HDAC6 | enzyme activity, inhibitor, fluorescence |  | 10 µM |  | 90% |
| C[C@@H](N)C1CCN(S(=O)(=O)c2cccc3c(=O)[nH]ccc23)CC1 | CLK1 (Homo sapiens, UniProt P49759) | cell-free assay, competition with immobilised ligand |  | 10 µM |  | > 95% |
| O=C(O)c1cccc(S(=O)(=O)N2CCOCC2)c1 | Ectonucleoside triphosphate diphosphohydrolase 1 | enzyme activity, inhibitor, absorbance |  | 100 µM |  | 15% |
| O=C1N[C@@H](CO)C[C@H](O)c2ccccc21 (relative stereo) | PARP3 (Homo sapiens, UniProt Q9Y6F1) | enzyme activity, inhibitor |  | 10 µM |  | 0% |
| Cn1c(=O)c(SCC(=O)NCCN2CCC(Cc3ccccc3)CC2)nc2ccccc21 | DRD3 (Homo sapiens, UniProt P35462) | cell-free assay, inhibitor |  | 10 µM |  | > 90% |
| COc1cc(OC2CCN(C)CC2)ccc1Nc1ncc2c(n1)n(C1CCCC1)c(=O)n2C | KIT (Homo sapiens, UniProt P10721) | enzyme activity, inhibitor |  | 1 µM |  | > 40% |
| O=c1c(/C=N/NC(=S)N/N=C/c2cc(Cl)ccc2O)coc2ccccc12 | potato tyrosinase | inhibitor |  | 50 µM, 0 to 20 min, added: L-DOPA | reference: control | < 10% |
| CCNC(=O)Nc1ccc(OC/C=C\COc2ccc(NC(=O)NCC)cc2)cc1 | Transcription antitermination protein NusB, with NusE (nusB, Bacillus subtilis, UniProt P54520) | protein-protein interaction, inhibitor, competitive ELISA |  | 25 µM, 15 min preincubation, 37 °C, added: 200 nM GST-NusE |  | 72% |
| CCCCCCCCCCCCCCCC(=O)N[C@@H](CCCCN)C(=O)N[C@@H](CCCCN)C(=O)N[C@@H](CO)C(=O)N[C@@H](CCCNC(=N)N)C(=O)N[C@@H](C)C(=O)N[C@@H](CC(C)C)C(=O)N[C@@H](Cc1ccccc1)C(N)=O | F2R (Homo sapiens, UniProt P25116) | platelet aggregation, light transmittance aggregometry | human, platelet-rich plasma ex vivo | 0.5 mg/kg, 14 days, added: SFLLRN 5 µM | reference: baseline | 32% |

| SMILES | target | assay | test system | setting | scale | inhibition |
| --- | --- | --- | --- | --- | --- | --- |
| O=C(N/N=C/c1ncc[nH]1)c1cccs1 | dxs (Deinococcus radiodurans, UniProt Q9RUB5) | enzyme activity, inhibitor |  | 120 µM |  | 24% |
| C[Si]1(C[C@H](CN)CC(=O)O)CCCC1 | Voltage-dependent calcium channel subunit alpha-2/delta-1 (Rattus norvegicus, UniProt P54290) | [3H]gabapentin binding | rat cerebral cortex membranes | 0.39 µM, added: [3H]gabapentin 20 nM |  | 10% |
| COc1cc(C(=O)NC2CCC(N3CCN(CC4CCC5(CCCC5)C4)CC3)CC2)c(F)cc1Nc1ncc2c(n1)N(C1CCCC1(F)F)CC(F)(F)C(=O)N2C (stereo not drawn) | AXL (Homo sapiens, UniProt P30530) | cell-free assay, TR-FRET |  | 10 µM |  | 0.4% |
| N#Cc1c(F)c(F)c2c(N)nc(SCc3ccccc3)nc2c1F | CDC25B | enzyme activity, inhibitor, fluorescence |  | 20 µg/mL |  | 98.2% |
| CCOc1cccc(C(=O)Nc2ccc(-c3nc4ccccc4[nH]3)cc2)c1 | Heat shock protein 90, N-terminal domain (Plasmodium falciparum, UniProt Q8IC05) | ligand displacement, FP |  | 10 µM |  | 25% |
| NC(=O)c1ccc(C(=O)NOCc2ccc(Sc3cccc(Cl)c3)c(C(F)(F)F)c2)cc1 | HDAC6 | cell-free assay, inhibitor |  | 100 µM |  | 16.8% |
| O=C(NCc1cn([C@H]2O[C@H](CO)[C@@H](O)[C@H](O)[C@H]2O)nn1)c1ccccc1 | GAA | enzyme activity, inhibitor, fluorescence |  | 1.43 mM, pH 4, lysate |  | 47% |
| COC(=O)Nc1ccc2c(c1)c(Cc1ccc(C(=O)NS(=O)(=O)c3ccc(C(F)(F)F)cc3)cc1OC)cn2C | Tumor necrosis factor receptor superfamily member 1A (Homo sapiens, UniProt P19438) | NF-κB reporter gene, luciferase reporter | HEK293 cells | up to 250 nM, added: TNF 10 ng/mL |  | ~63% |
| COc1cc(S(=O)(=O)Nc2ccc(Nc3ccnc(N4CCCC4)n3)cc2)c(C)cc1C | Heat shock protein HSP 90-alpha, with Cdc37 (HSP90AA1, Homo sapiens, UniProt P07900) | Hsp90-Cdc37 interaction, HTRF |  | 200 µM |  | > 50% |
| O=c1cc(-c2ccccc2)oc2cc(OCc3cn([C@H]4O[C@H](CO)[C@@H](O)[C@H](O)[C@H]4O)nn3)cc(O)c12 | GAA | enzyme activity, inhibitor, fluorescence |  | 1.43 mM, pH 4, lysate |  | 96% and > 66% |
| Cc1ccc(Nc2nc(SCc3cn(CC(=O)NC(=O)Nc4ccccn4)nn3)nc(-c3ccccc3)c2C#N)cc1 | KDM1A (Homo sapiens, UniProt O60341) | enzyme activity, inhibitor, fluorescence |  | 1 µM |  | 100% |
| CC(NC(=O)CSc1nc2c(c(-c3ccccc3)c1C#N)CN(C)CC2)c1ccccc1 (stereo not drawn) | HTR1A (Homo sapiens, UniProt P08908) | ligand displacement, radioligand |  | 10 µM |  | ≥ 50% |
| COc1cc(C(=O)O[C@@H]2Cc3c(O)cc(O)cc3O[C@@H]2c2ccc(O)c(O)c2)cc(O)c1O | Si | enzyme activity, inhibitor | rat intestinal brush border vesicles | 10 µM |  | 41.9% |
| O=C(c1cccc(S(=O)(=O)NC2CC2)c1)N1CCOCC1 | Ectonucleoside triphosphate diphosphohydrolase 1 | enzyme activity, inhibitor, absorbance |  | 100 µM |  | 28% |
| N#Cc1c(F)c(Cl)c2nc(SCc3ccc(Cl)c(Cl)c3)nc(N)c2c1F | CDC25B | enzyme activity, inhibitor, fluorescence |  | 20 µg/mL |  | 97.3% |
| O=C(O[C@H]1Cc2c(O)cc(O)cc2O[C@@H]1c1ccc(O)c(O)c1)c1cc(O)c(O)c(O)c1 | Si | enzyme activity, inhibitor | rat intestinal brush border vesicles | 10 µM |  | 79.2% |
| COc1cccc(CSc2nc(N)c3c(F)c(C#N)c(F)c(Cl)c3n2)c1 | CDC25B | enzyme activity, inhibitor, fluorescence |  | 20 µg/mL |  | 2.11% |
| CC(=O)c1cnc(N)nc1N1CC[C@H]1c1nn2ccc(Cl)c2c(=O)n1-c1ccccc1 | Potassium voltage-gated channel subfamily KQT member 1, with KCNE1 (KCNQ1, Homo sapiens, UniProt P51787) | ion current, inhibitor |  | 3 µM |  | < 10% |

Excerpt of the above:
| SMILES | target | assay | test system | setting | scale | inhibition |
| --- | --- | --- | --- | --- | --- | --- |
| O=C(c1cccc(S(=O)(=O)NC2CC2)c1)N1CCOCC1 | Ectonucleoside triphosphate diphosphohydrolase 1 | enzyme activity, inhibitor, absorbance |  | 100 µM |  | 28% |
| N#Cc1c(F)c(F)c2nc(SCc3ccc4ccccc4c3)nc(N)c2c1F | CDC25B | enzyme activity, inhibitor, fluorescence |  | 20 µg/mL |  | 99.4% |
